# Published values gathered from unrelated publications.
# Numbered parts are unrelated; each lists some results of a single study. Substitutions count along the parent as printed.

# Set 1 — target: CCNE2, cyclin fold, Cln2 fusion (human); method: yeast growth competition, sequencing; matrix: yeast; notes: strong parent motif; baseline: not given; direction: higher = stronger binding
# Starting sequence: DTL docking peptide (human); PSSMRKICTYFHR
Variant,normalised enrichment score
PSSMRKACTYFHR [I7A],0.617
PSSMRKICTAFHR [Y10A],1.31
PSSARKICTYFHR [M4A],1.03
PSSMRKIATYFHR [C8A],0.835
PASMRKICTYFHR [S2A],0.844
PSSMRKICTYFAR [H12A],1.12
PSAMRKICTYFHR [S3A],1.23

# Set 2 — method: DHFR PCA, dose-response; matrix: yeast; together with: (+)-ABA, dose series; direction: lower = more sensitive
# Target: ABI1, truncated, D143A, DHFR fusion (Arabidopsis thaliana, UniProt P49597)
# Notes: Hill fit, not affinity, not high confidence
# Starting sequence: PYL1, truncated, DHFR fusion (Arabidopsis thaliana, UniProt Q8VZS8); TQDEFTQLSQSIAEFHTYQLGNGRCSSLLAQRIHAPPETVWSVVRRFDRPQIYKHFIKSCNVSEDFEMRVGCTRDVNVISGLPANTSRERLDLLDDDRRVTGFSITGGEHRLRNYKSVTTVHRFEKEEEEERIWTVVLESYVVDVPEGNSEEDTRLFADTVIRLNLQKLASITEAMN
Variant,ABA EC50
E89Y,0.34 µM
H110E,0.388 µM
Q31P,0.206 µM
T173K,599 µM
F157W,318 µM
I162D,0.00348 µM
C25D,66.8 µM
P146M,204 µM
S87H,0.77 µM
P50M,22.3 µM
H16L,188 µM
V161G,2.69 µM
F157D,0.334 µM
V100E,1180 µM
V78K,155 µM
R90P,0.675 µM
N177A,0.798 µM
W41A,17.9 µM
L8M,5.25 µM
T135K,943 µM
T119W,72.4 µM
L138K,197 µM
D153R,831 µM
H16K,196 µM
V40D,0.437 µM

# Set 3 — target: DDIT3, bZIP domain (human); method: DHFR protein complementation; matrix: yeast; baseline: wild-type JUN-FOS pair; direction: higher = stronger binding
# Notes: single substitutions, most at no-binding floor
# Starting sequence: JUN, bZIP domain (human); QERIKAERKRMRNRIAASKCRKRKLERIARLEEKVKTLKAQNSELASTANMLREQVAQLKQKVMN; partner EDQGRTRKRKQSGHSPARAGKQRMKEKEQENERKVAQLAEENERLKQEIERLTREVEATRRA
Variant,binding fitness [natural log]
M51T,0.0686
L31A,-0.5
V56Q,-0.465
A49N,-0.951
I28S,-0.0995
L31V,-0.442
E54K,-0.0833
K36H,-0.0453
R53L,-0.552
R53T,-0.509
E32Y,-0.757
T37M,0.512
L38V,-1.16
E44F,-0.123
E32T,-0.355
L52E,-0.967
E54P,-1.19
A46Q,0.0939
V56R,-0.561
K36Q,0.0184
L45M,-0.28
Q55F,-0.189

# Set 4 — method: protein-binding microarray; molecule type: double-stranded DNA, one strand shown; matrix: in vitro; tested at: 940 nM top; notes: 60-bp whole probe; together with: salmon DNA 0.4 mg/ml; baseline: random background probes; direction: higher = stronger binding; shared flanks, not repeated: GCCTAGCAC … GTCTTGATTCGCTTGACGCTGCTG
# Target: Interferon regulatory factor 5, full length, phosphomimetic (IRF5, Homo sapiens, UniProt Q13568-2, residues 1-514, S451D/S453D/S456D/S462D)
Strand,fitted relative affinity
TATGTTCCCTATTTAAGGCTGTGCTAG,0.467 z-score
ATTGGTTGAACATGAACTTCGTGCTAG,-0.41 z-score
TTATGACTGGGGTTTCGGTTAGTGCTA,6.3 z-score
GACGGAATCCTTTTCCTGACGTGCTAG,-0.396 z-score
TCATATATGACAATGATACTGTGCTAG,0.18 z-score
TCAAGACTTTCTTTCAAACTGTGCTAG,0.931 z-score
TTAGATCTCAGACTTGATTAGTGCTAG,-0.299 z-score
TTAGGTTTCCTTATCCTTTCGTGCTAG,2.13 z-score
CTAGGTTTCGGTATCGGTTAGTGCTAG,14.2 z-score
TCAACTCTCTTGTCTGGAACTGTGCTA,0.459 z-score
GACGATCTCTGTATCGAGACGTGCTAG,0.709 z-score
CACGAACTGGGGACTGGAGACGTGCTA,0.0144 z-score
GACGGATTGGGTCTCGGGACGTGCTAG,0.419 z-score
TTAGGTTTGCTACTGCTTTAGTGCTAG,-0.225 z-score
TTAGGTTTCCTACTGCGTTAGTGCTAG,0.542 z-score
GACGGTCTGGACTTTCGGGACGTGCTA,0.326 z-score
GACAGTTTCGGACTGGGGACGTGCTAG,6.49 z-score
AATAGCTTTTCATTTTTTAACGTGCTA,0.782 z-score
GACGGTATCGATATCGGGACGTGCTAG,9.13 z-score
TTAGATCTCGGACTGGATTAGTGCTAG,-0.0205 z-score
GACGGACTGGGACTGGGGCCGTGCTAG,-0.399 z-score
TTAGGTTCCCTTTTACTTTAGTGCTAG,0.736 z-score
TCTTTTTGCACTCTCTACATGTGCTAG,1.91 z-score
ATGTGTTTACATATGTTTTTGTGCTAG,-0.0369 z-score
TTAGGTTTCCTAGTGCTTTAGTGCTAG,0.468 z-score

# Set 5 — method: RNA Bind-n-Seq; molecule type: RNA; matrix: in vitro; tested at: 100 nM; baseline: input RNA pool; direction: higher = stronger binding
# Target: RING finger protein unkempt homolog, zinc fingers 1-6, SBP tag (UNK, Homo sapiens, UniProt Q9C0B0, residues 30-357)
# Sequence of UniProt Q9C0B0 (30-357, looked up): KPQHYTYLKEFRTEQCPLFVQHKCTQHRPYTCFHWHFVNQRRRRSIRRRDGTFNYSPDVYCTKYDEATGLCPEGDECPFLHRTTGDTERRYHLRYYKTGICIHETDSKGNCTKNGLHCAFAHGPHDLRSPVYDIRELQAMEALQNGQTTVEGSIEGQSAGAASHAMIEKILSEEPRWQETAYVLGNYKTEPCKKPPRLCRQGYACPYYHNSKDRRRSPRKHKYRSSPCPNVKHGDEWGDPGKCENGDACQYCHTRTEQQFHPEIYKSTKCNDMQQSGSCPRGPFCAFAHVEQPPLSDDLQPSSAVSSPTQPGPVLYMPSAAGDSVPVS
# Notes: RNA with constant flanks, vertebrate orthologous sites, ends assumed
# Shared flanks, not repeated: GGGAGUUCUACAGUCCGACGAUC … CAACAGAGGAUUGAGCAUCA
Strand,bound/input enrichment [ratio]
CUCUCUUAGUGAUAGUAUUCCAUCUGUAGCAGAUUCUCACUCGAGUCAUUUUUCUGAGUUUAGCUGCUCAGAUAUGGAAAGUAUGAAAACUUCCUGCAGCCAUGGUUCCAGCGACUAUCA,0.464
AUGUCUAGUGCUUAAGCCAGCAAUUAUAGAAUGCUAUUUAUUUAUGUCUAAGUUUGUACAUAUCUUAACCUCAUUGUUGCUGAGUUUCAUUUUAAGGAAGGCAAGUUUGAGUUUUAUUUC,0.611
CAUCUCUCAUUUUAUGUAUCCAGAAAUGGCUUUGAAUUUUUUAAAAAUUGCUGUUUUAAUUAGUUUUGCCCUCACGAGGUGUUGUUAUAGUUUACCAGAAACAGGUAUCUGUCUGAAUUA,1.05
AAAUCAGCCCCAGUUUCUAACAACUGACACCCUAAAGAUUUAGAGGUUUACAACACAAUCUAGUUUACGAAGAAAUCUUGUGCUAGAAUACUUUUUAAAGUAUUUUUGAAUAUCCUUAAA,0.47
UAAUGCAAUGCUUGAAGGCUCUGAGCUCAAAAAGAUUCGGUCCAACUCUAGAGUGUACCACCGGUAUUUCUUUUUAGAAGCAGAUAUGCAGUUCCUACGCUGGGAACCUUCAAAGAAGGA,0.336
CCCUCUGAACCCCAUAUCUUCUGUCUCAUAGUGUAGAAGUAGUCUUUUCAAUUAUAUUAUUAGUGGACUUGUUUUAAUUUUAGGGAAACUUUCAGUACAGAUACUGUGAGCUUACAUGGA,4.1
CCCUCUGAACCCCAUAUCUUCUGUUUCAUAAUGCAGAAGUAUUCUUUUCAAUUAUAUUGUUAGUGGACUUGUUUUAAUUUUAGAGAAACUUUGAGUACAGAUACUGUGAGCUUACAUUGA,1.77
AAGAUGGUGGUUGUACAUUAUUUCAUUUAGAAAAUAUAAAAAUUCAUUUUGUUUUGAAGCUAGGUGUUAAACUGGAAUAGCUCUUAUACCCCAGAGAAUGGGGGCAGUUGUGCCCUUCCC,1.17
UCUCAUUUUGUAUGUCAAAAAAAAAAGGGUUUGAAUUUUUAAACAAUUGCUAGUUUUAAUUAGCUCUGCCCUCAUGAAAAUAUAUUAUAGUCACCACAAACAUAUCUGUCUGAAUUACUU,0.493
UUCAGUGUCCCUCCCGCGGUGACAUCCGUACUGUCCCCGGCCAGGGCUGAGGACCUGCAUUAGAAACAUUUUUUAAAUUGUCGUACAGGAAGAGAUGUGUCUAACACAGCAUCUCAAAGC,0.698
CAGCUGAUUCACUCAUUGGGAGAGCUGCACAUAUAGCUGUUCUUGAUUCAGAAAUAUUUUUAGAGAAAUUCUUUCUGGUUGCUGCCCUUAAAUAUUUCCAAUAGGAUAAAAACACUGUUA,0.808

# Further values, each from its own experiment — method: cross-linking MS
Molecule,partner,test system,setting,measurement,result
"USP48 (Homo sapiens, UniProt Q86UV5)","RAD50 (Homo sapiens, UniProt Q92878)",cell fractions,together with: DSSO,cross-linked residues,K231 to S447
"ARID1A (Homo sapiens, UniProt O14497)","SMARCD2 (Homo sapiens, UniProt Q92925)",,hits only,interaction screen,cross-linked
"PFDN1 (Homo sapiens, UniProt O60925)","TUBA1A (Homo sapiens, UniProt Q71U36)",,hits only,interaction screen,cross-linked
